# Experimental data gathered from unrelated publications.
# Lines come from different studies, so protocols differ. Numbers after ± are the reported error.
# OPRM1: Mu-type opioid receptor (OPRM1, Homo sapiens, UniProt P35372)
# Sequence of UniProt P35372 (whole entry, looked up): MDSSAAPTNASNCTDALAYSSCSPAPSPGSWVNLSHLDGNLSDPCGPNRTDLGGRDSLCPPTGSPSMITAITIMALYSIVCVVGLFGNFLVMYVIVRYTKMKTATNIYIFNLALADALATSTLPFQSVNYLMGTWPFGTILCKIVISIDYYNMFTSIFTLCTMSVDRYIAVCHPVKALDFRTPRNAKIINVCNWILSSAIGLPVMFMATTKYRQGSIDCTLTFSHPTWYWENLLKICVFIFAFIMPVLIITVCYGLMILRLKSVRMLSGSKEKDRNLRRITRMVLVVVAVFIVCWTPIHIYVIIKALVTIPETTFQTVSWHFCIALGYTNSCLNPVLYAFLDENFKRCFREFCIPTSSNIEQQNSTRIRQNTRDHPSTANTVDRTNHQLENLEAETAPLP
Structure (SMILES),target or system,assay,test system,conditions,scale,quantity,result
C[C@@H](NC(=O)[C@@H](N)Cc1ccc(O)cc1)C(=O)NCC(=O)N(C)[C@@H](Cc1ccccc1)C(=O)NCCO,OPRM1,,,,,Emax,25 ± 2.3%
CC[C@@H]1CN2CCc3c([nH]c4cccc(OC)c34)[C@@H]2C[C@@H]1/C(=C\OC)C(=O)O,OPRM1,"G protein activation, agonist, BRET",,up to 100 µM,,agonist activity,inactive
O=C(Nc1cnccc1Cl)N1CCN(Cc2ccc3c(c2)OC(F)(F)O3)CC1,OPRM1,"radioligand binding, inhibitor",,"50 µM, human, with: [3H]diprenorphine",,inhibition,16%
Cn1cccc1-c1cccnc1,OPRM1,binding,,50 µM,,inhibition,-23.7%
Oc1cccc([C@@]23CCC[C@@H](C2)N(CCc2ccccc2)C[C@H]3O)c1 (relative stereo),OPRM1,antagonist,,,,Ke,12 nM
CN[C@]1(c2ccccc2Cl)CCCCC1=O,OPRM1,"radioligand binding, agonist, radioligand displacement",,30 µM,,inhibition,75%
CCCCCCC(C)(C)c1ccc(C2CC(O)CCC2CCCO)c(O)c1 (stereo not shown),OPRM1,"forskolin-stimulated adenylyl cyclase, agonist",CHO cells,1 µM,,inhibition,8%
CC[C@@H]1CN2CCc3c([nH]c4cccc(OC)c34)[C@@H]2C[C@@H]1C(=CO)C(=O)OC,OPRM1,"G protein activation, agonist, BRET",,,baseline: DAMGO,Emax,80%
C[C@@H](NC(=O)[C@@H](N)Cc1ccc(O)cc1)C(=O)NCC(=O)N(C)[C@@H](Cc1ccccc1)C(=O)NCCO,OPRM1,agonist,SH-SY5Y membranes,,baseline: basal,Emax,203 ± 11.7%
Oc1cccc(N2[C@@H]3CC[C@H]2CN(CCCc2ccccc2)C3)c1,OPRM1,"agonist, SAFETYscan",,,baseline: DAMGO,Emax,98.6%
Cn1cc(-c2ccc3nnc(C(F)(F)c4ccc5ncccc5c4)n3n2)cn1,human coronavirus OC43,virus-induced cell killing,MRC-5,maximum over 10 doses,,maximum inhibition,0%
C[C@H]1COCCN1c1nc(NCc2cccnc2C(F)(F)F)c2cccnc2n1,OPRM1,binding,,CEREP panel,,IC50,11 µM
CC/C(=C(\c1ccc(O)cc1)c1ccc(OCCN(C)C)cc1)c1ccccc1,OPRM1,refers to: cAMP,CHO cells expressing human MOR,10 µM,baseline: basal,adenylyl cyclase activity increase,1%
Cc1c(O)c(=O)ccn1C,human coronavirus OC43,virus-induced cell killing,MRC-5,screen,,maximum inhibition,11.7%
O=c1ccc2ccccc2o1,OPRM1,"radioligand binding, agonist",,10 µM,,inhibition,-8.84%
COc1ccsc1CNCC[C@@]1(c2ccccn2)CCOC2(CCCC2)C1,OPRM1,agonist,HEK-293T,,,Emax,95 ± 3%

# Excerpt of the above:
Structure (SMILES),target or system,assay,test system,conditions,scale,quantity,result
CCCCCCC(C)(C)c1ccc(C2CC(O)CCC2CCCO)c(O)c1 (stereo not shown),OPRM1,"forskolin-stimulated adenylyl cyclase, agonist",CHO cells,1 µM,,inhibition,8%
